Published values from different studies.
A part holds a random share of what one study measured. Positions count from the first letter of the parent shown.

Series 1 — effect on: binding; method: phage display NGS; form: peptide; reference: input library
Target: UDP-N-acetylglucosamine--peptide N-acetylglucosaminyltransferase 110 kDa subunit (OGT, Homo sapiens, UniProt O15294)
Sequence of UniProt O15294 (whole entry, looked up): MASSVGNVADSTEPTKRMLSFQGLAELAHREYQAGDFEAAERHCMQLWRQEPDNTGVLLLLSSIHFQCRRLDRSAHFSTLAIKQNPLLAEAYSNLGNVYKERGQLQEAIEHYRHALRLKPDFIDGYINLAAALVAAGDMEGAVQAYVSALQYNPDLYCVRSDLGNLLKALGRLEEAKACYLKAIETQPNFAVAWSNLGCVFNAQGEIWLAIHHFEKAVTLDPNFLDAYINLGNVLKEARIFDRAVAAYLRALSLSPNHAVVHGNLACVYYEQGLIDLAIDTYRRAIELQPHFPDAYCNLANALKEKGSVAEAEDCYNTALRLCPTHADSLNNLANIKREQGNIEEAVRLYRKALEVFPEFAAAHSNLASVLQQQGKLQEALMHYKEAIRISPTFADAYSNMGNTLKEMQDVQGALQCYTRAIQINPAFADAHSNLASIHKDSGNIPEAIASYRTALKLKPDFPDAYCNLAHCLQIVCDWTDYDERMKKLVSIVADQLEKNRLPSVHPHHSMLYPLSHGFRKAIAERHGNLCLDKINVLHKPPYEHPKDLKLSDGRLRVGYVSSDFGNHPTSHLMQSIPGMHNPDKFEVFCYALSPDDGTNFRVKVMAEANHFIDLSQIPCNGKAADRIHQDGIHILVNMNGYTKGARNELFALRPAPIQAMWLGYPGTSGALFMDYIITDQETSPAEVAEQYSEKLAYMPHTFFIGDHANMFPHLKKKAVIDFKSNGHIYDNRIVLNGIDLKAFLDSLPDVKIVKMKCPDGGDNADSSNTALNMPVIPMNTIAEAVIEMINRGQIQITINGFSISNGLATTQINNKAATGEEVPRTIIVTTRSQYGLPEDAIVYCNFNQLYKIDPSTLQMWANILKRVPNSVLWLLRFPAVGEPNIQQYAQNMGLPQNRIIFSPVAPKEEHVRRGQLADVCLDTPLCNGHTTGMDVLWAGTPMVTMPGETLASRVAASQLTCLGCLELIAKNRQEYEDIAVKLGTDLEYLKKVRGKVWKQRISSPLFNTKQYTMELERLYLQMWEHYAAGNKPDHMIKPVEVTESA
| Sequence | minimum log2 enrichment ratio |
| --- | --- |
| DHSHFHERMYVRHDI | 1.15 |
| SVMHHHHSATTYLG | 2.8 |
| WPGHSHNNYAHHTGH | 2.59 |
| FHSTMPVYQLKYVN | 1.63 |
| SIVYEYKKGQIHNHR | 1.75 |
| KEVFLPQYPIEIQT | 1.6 |
| VAYPNSYMPKYQIST | 4.17 |

Series 2 — method: RNA Bind-n-Seq; form: RNA; medium: in vitro; tested at: 20 nM; setting: 6-mer, flanks averaged, single round; added: 150 mM LiCl; reference: input library; reading: higher = stronger binding
Target: TAR DNA-binding protein 43, full length, His tag (TARDBP, Homo sapiens, UniProt Q13148, residues 1-414)
| Strand | 6-mer enrichment (R) |
| --- | --- |
| AGAAUC | 0.843 |
| AGUAUA | 0.951 |
| GGCCCC | 1.2 |
| AUGAUC | 0.852 |
| CUCGUC | 0.874 |
| ACCUCG | 0.817 |
| ACAUCC | 0.881 |
| CCAAGA | 0.822 |

Series 3 — target: inorganic phosphate, free oxyanion; method: microfluidic competitive inhibition; medium: in vitro, cell-free expressed; tested at: not given; reading: lower = stronger binding
Setting: derived from inhibition constants, unchanged parent 615000 nM
Starting sequence: PafA, mature enzyme, eGFP fusion (Elizabethkingia meningoseptica, UniProt Q9KJX5); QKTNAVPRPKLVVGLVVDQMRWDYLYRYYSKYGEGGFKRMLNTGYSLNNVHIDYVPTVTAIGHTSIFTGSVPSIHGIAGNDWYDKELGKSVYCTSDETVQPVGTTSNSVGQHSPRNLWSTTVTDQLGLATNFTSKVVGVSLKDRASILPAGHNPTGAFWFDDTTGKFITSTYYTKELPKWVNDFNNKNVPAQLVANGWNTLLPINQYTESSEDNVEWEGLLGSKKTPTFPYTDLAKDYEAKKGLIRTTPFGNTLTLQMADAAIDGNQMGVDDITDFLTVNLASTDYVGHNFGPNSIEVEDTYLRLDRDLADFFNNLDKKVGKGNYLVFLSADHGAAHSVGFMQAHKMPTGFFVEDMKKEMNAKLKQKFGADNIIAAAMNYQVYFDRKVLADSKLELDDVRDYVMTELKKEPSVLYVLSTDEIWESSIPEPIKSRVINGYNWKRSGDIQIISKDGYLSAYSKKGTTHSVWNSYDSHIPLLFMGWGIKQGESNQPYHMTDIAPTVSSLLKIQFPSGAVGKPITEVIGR
| Variant | phosphate dissociation constant [µM] |
| --- | --- |
| I450G | 430 |
| K367V | 707 |
| V99A | 721 |
| D84G | 491 |
| T232V | 668 |
| K393V | 651 |
| E176V | 663 |
| F132G | 544 |
| A344V | 680 |
| E429G | 387 |
| V102G | 237 |
| W118G | 431 |
| G35A | 641 |
| S504G | 519 |

Series 4 — target: CCNB3, cyclin fold, Cln2 fusion (human); method: yeast growth competition, sequencing; medium: yeast; setting: strong parent motif; reference: not given; reading: higher = stronger binding
Starting sequence: viral docking peptide; KGVKRKLFAEDSS; partner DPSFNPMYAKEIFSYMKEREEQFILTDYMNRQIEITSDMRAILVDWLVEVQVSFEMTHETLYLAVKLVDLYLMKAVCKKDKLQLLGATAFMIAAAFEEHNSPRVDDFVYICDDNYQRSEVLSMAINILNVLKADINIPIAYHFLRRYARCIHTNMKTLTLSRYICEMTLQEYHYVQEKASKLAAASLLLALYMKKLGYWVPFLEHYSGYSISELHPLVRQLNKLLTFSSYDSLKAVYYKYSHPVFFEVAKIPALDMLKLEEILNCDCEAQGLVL
| Variant | normalised enrichment score |
| --- | --- |
| KGVFRKLFAEDSS [K4F] | 1.34 |
| KGVKRFLFAEDSS [K6F] | 0.269 |
| KGPKRKLFAEDSS [V3P] | 2.08 |
| KGVKRKLFAIDSS [E10I] | 1.55 |
| KGVKRKLFAMDSS [E10M] | 1.71 |
| KGVKKKLFAEDSS [R5K] | 0.865 |
| KGVKRKLFDEDSS [A9D] | 3.09 |
| KVVKRKLFAEDSS [G2V] | 2.04 |
| KGVKLKLFAEDSS [R5L] | 0.228 |
| KGVKRKLIAEDSS [F8I] | 0.147 |
| KGVKRKLVAEDSS [F8V] | 0.401 |
| KGEKRKLFAEDSS [V3E] | 0.287 |
| KGVWRKLFAEDSS [K4W] | 1.1 |
| KGVKRKLHAEDSS [F8H] | -0.262 |

Some of these lines once more (series 4):
| Variant | normalised enrichment score |
| --- | --- |
| KGVKRKLFAIDSS [E10I] | 1.55 |
| KGVKRKLFAMDSS [E10M] | 1.71 |
| KGVKKKLFAEDSS [R5K] | 0.865 |
| KGVKRKLFDEDSS [A9D] | 3.09 |
